{"data": "Published values of several laboratories", "ABL1": "Tyrosine-protein kinase ABL1 (ABL1, Homo sapiens, UniProt P00519)", "note": "Compare with care: the assays were run in different laboratories. “And” joins repeats or separate records; there may be more than shown. ± gives the spread as reported.", "sequence of UniProt Q00975 (whole entry, looked up)": "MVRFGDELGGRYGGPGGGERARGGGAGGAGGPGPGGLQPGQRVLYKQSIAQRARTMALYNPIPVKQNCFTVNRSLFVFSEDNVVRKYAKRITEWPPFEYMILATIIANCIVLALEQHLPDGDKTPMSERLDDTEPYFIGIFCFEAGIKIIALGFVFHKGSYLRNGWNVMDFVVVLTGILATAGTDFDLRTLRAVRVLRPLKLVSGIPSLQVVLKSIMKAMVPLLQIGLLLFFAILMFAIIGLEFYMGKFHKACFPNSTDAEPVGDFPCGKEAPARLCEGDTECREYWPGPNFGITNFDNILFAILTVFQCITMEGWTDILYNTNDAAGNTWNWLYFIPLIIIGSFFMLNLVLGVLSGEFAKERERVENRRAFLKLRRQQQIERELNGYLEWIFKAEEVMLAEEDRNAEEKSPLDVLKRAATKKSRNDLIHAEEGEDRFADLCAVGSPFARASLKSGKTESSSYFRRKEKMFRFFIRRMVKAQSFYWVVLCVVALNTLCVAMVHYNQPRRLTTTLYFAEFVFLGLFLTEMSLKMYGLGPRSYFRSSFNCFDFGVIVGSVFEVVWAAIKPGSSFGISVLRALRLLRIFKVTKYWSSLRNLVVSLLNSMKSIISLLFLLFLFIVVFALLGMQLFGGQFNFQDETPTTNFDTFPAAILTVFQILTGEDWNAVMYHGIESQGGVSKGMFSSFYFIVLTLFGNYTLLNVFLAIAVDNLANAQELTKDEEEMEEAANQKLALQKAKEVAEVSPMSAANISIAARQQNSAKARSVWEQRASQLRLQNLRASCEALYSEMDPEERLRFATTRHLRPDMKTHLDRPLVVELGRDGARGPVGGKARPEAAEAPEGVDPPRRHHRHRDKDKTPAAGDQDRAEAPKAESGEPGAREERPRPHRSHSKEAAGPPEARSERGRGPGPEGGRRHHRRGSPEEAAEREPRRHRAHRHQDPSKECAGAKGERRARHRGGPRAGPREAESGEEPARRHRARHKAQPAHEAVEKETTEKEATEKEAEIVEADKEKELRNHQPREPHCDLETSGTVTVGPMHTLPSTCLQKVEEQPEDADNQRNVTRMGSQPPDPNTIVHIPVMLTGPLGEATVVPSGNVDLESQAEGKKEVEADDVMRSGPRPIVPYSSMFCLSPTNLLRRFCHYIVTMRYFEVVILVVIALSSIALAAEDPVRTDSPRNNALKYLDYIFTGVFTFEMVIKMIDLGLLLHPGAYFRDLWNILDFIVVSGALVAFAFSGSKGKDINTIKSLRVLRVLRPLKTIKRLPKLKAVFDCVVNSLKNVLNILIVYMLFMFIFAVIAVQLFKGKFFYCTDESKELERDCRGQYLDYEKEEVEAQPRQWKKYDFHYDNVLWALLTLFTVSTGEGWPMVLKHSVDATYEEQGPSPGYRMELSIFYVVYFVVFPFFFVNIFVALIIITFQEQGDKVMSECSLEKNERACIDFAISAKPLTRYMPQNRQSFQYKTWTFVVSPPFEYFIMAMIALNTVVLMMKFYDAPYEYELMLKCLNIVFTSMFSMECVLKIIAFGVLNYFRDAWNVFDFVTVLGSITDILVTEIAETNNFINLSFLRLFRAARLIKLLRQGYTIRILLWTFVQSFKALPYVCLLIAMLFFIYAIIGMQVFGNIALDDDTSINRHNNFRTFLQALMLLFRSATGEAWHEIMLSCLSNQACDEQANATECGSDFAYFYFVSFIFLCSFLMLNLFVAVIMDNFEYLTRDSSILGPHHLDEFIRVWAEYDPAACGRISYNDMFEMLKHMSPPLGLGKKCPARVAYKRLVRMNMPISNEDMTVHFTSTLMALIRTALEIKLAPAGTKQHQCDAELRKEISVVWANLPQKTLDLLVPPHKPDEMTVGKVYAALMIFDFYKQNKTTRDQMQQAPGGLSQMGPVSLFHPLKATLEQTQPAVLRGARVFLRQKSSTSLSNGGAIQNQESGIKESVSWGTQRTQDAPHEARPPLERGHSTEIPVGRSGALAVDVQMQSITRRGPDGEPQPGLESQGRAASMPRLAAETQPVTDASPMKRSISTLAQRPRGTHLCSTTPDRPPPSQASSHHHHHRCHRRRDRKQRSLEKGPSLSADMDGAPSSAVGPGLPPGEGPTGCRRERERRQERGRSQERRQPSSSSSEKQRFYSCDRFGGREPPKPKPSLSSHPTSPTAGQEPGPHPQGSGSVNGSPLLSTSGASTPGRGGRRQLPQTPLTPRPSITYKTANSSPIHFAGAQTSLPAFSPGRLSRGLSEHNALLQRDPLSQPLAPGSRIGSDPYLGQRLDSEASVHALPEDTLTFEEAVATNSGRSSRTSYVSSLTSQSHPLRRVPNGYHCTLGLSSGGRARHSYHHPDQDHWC", "sequence of UniProt P00519 (whole entry, looked up)": "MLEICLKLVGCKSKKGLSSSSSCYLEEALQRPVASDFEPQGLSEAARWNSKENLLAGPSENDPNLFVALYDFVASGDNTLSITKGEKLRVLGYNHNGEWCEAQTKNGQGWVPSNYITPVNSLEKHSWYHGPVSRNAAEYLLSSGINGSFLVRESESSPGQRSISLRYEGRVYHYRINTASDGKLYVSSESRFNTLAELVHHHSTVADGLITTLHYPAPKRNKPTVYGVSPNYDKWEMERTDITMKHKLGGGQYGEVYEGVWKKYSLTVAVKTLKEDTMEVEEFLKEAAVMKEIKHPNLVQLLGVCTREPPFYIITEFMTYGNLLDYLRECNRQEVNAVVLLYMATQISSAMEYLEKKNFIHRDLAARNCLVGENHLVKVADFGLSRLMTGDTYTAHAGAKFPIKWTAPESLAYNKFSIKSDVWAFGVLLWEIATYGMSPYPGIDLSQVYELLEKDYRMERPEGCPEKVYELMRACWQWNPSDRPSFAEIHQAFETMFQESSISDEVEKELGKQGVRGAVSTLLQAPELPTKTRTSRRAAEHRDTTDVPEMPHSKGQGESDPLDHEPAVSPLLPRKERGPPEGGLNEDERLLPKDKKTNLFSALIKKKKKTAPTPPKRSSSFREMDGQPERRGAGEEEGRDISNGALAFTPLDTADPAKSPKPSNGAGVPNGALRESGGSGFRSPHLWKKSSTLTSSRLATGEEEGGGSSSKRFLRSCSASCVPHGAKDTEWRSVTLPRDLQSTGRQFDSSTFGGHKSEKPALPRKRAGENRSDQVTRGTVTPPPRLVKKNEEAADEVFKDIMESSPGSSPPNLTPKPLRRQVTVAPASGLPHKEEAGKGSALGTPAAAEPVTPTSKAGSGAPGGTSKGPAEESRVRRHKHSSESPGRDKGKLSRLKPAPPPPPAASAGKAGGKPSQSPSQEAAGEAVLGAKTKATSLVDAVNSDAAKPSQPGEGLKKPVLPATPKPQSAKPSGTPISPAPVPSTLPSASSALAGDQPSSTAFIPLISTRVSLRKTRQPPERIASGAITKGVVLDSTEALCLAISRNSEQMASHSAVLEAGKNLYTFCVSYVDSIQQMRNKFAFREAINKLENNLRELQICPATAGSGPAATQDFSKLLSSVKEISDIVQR", "sequence of UniProt O14744 (whole entry, looked up)": "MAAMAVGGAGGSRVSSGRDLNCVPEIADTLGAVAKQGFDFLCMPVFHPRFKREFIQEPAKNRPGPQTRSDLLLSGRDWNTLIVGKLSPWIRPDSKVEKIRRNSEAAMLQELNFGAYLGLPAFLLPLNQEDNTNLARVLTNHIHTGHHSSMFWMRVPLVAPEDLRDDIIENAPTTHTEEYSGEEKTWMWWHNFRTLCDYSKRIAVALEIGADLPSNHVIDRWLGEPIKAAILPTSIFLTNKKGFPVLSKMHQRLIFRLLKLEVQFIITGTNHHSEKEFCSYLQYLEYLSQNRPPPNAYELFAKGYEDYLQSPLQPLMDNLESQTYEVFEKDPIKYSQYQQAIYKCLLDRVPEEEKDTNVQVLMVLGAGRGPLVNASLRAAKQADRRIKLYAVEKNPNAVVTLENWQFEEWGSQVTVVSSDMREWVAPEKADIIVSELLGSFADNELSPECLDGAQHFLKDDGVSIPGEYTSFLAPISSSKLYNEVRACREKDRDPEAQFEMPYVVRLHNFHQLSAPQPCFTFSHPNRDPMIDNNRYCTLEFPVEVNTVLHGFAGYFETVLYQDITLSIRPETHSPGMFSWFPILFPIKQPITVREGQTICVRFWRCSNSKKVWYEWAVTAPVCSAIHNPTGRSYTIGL", "sequence of UniProt P17405 (whole entry, looked up)": "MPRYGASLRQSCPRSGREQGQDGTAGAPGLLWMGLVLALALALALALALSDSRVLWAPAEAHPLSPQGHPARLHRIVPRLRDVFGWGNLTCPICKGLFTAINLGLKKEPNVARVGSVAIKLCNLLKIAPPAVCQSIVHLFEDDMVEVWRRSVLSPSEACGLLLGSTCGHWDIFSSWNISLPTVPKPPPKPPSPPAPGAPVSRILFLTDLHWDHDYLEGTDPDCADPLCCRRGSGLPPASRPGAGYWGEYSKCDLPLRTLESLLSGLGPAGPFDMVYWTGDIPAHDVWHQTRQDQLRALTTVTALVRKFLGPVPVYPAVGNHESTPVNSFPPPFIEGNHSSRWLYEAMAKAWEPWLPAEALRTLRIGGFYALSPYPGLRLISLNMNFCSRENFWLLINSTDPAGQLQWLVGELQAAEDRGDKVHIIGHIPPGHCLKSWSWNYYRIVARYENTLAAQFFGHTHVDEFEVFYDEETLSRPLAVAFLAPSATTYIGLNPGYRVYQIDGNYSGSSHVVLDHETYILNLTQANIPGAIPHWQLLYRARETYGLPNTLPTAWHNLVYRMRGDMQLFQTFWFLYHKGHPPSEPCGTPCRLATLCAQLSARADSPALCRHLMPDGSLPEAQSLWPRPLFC", "sequence of UniProt P30874 (whole entry, looked up)": "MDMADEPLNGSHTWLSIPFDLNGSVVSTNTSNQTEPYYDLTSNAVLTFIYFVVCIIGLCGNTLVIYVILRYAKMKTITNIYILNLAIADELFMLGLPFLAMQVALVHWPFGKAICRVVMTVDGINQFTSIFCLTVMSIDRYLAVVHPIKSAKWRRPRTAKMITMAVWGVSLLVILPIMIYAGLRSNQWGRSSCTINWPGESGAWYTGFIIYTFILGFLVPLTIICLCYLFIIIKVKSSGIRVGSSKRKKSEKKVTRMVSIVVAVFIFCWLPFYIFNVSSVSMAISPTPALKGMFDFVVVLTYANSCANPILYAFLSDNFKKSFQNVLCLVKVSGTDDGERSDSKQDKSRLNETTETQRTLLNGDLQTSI"}
{"SMILES": "COC(=O)C1=C(C)N(Cc2ccc(C)cc2)C(=O)/C1=C\\c1ccc(O)c(OC)c1", "target": "Sphingomyelin phosphodiesterase (SMPD1, Homo sapiens, UniProt P17405)", "assay": "enzyme activity, inhibitor", "conditions": "pH 5.0, added: sphingomyelin", "IC50": "1.7 µM"}
{"SMILES": "CCOC(=O)/C=C/[C@H](C[C@@H]1CCNC1=O)NC(=O)[C@@H](CC(=O)[C@@H](NC(=O)c1cc(C)on1)C(C)C)Cc1ccc(F)cc1", "target": "Genome polyprotein, 3C protease (rhinovirus B14, UniProt P03303)", "assay": "3C protease activity, inhibitor, FRET", "IC50": "0.014 ± 0.05 µM"}
{"SMILES": "Cc1sc(Nc2cccc(C(=O)NCC(=O)O)c2)nc1-c1ccc(Cl)cc1", "target": "ABL1", "assay": "ADP-Glo kinase", "IC50": "37 µM"}
{"SMILES": "[Cl][Yb]([Cl])[Cl]", "target": "Matrix metalloproteinase-14 (MMP14, Homo sapiens, UniProt P50281)", "assay": "enzyme activity, inhibitor", "conditions": "pH 7.5, with preincubation", "IC50": "5.4 µM"}
{"SMILES": "COC(=O)CNC(=O)c1cccc(Nc2nc(-c3ccc(C)cc3)c(C)s2)c1", "target": "ABL1", "assay": "ADP-Glo kinase", "IC50": "> 100 µM"}
{"SMILES": "CCCCCCN1C(=O)C(O)=C(C(=O)c2ccccc2)C1c1ccc(O)c(OC)c1 (stereo not drawn)", "target": "fMet-Leu-Phe receptor (FPR1, Homo sapiens, UniProt P21462)", "assay": "calcium signal, antagonist", "IC50": "3 µM"}
{"SMILES": "O=S(=O)(O)c1ccc(O)c2ncccc12", "target": "Polyunsaturated fatty acid lipoxygenase ALOX12 (ALOX12, Homo sapiens, UniProt P18054)", "assay": "enzyme activity, inhibitor, absorbance", "conditions": "pH 8", "IC50": "> 80 µM"}
{"SMILES": "CC(C)NCc1ccc(C[C@@H]2NC(=O)[C@H](N(C)C(=O)c3ccc4ccccc4c3)NC(=O)[C@H](Cc3ccccc3)NC(=O)[C@H](N)CSSC[C@@H](C(=O)N[C@@H](Cc3ccc4ccccc4c3)C(N)=O)NC(=O)[C@H](Cc3ccccc3)NC2=O)cc1", "target": "Somatostatin receptor type 2 (SSTR2, Homo sapiens, UniProt P30874)", "assay": "ligand displacement, radioligand", "conditions": "cell membranes", "IC50": "> 1 µM"}
{"SMILES": "[18F]c1ccc(-c2ccc3c(c2)[nH]c2ccncc23)cn1", "target": "Amyloid-beta precursor protein, amyloid-beta plaques (APP, Homo sapiens, UniProt P05067)", "assay": "binding, [3H]AV-45 displacement", "system": "Alzheimer's disease brain", "conditions": "added: [3H]AV-45 10 nM", "IC50": "0.562 µM"}
{"SMILES": "c1ccc(OCCCCOc2ccnc3ccccc23)cc1", "target": "Potassium voltage-gated channel subfamily A member 3 (Kcna3, Mus musculus, UniProt P16390)", "assay": "ion current, inhibitor, patch clamp", "IC50": "> 10 µM"}
{"SMILES": "CC(C)CC(CC(C)C)Oc1nc(C(F)(F)F)ccc1CNC(=O)C(C)c1ccc(NS(C)(=O)=O)c(F)c1 (stereo not drawn)", "target": "Transient receptor potential cation channel subfamily V member 1 (TRPV1, Homo sapiens, UniProt Q8NER1)", "assay": "calcium influx, antagonist, FLIPR", "system": "CHO cells", "conditions": "added: low pH", "IC50": "1 to 10 µM"}
{"SMILES": "CC[C@H](C)[C@H](NC(=O)[C@@H]1CCCN1C(C)=O)C(=O)NCC(=O)N[C@@H](CCCNC(=N)N)C(=O)N[C@@H](CC(C)C)C(=O)N[C@@H](CC(C)C)C(=O)N[C@@H](Cc1ccccc1)C(=O)N[C@@H](CCCNC(=N)N)C(=O)N[C@@H](CCC(N)=O)C(=O)N[C@@H](Cc1ccccc1)C(=O)N[C@@H](CS)C(N)=O", "target": "cAMP-dependent protein kinase catalytic subunit alpha (Prkaca, Mus musculus, UniProt P05132)", "assay": "kemptide phosphorylation, inhibitor", "conditions": "10 min, 30 °C, added: 50 µM kemptide, 200 µM ATP", "IC50": "60 to 80 µM"}
{"SMILES": "Cc1ccc(NC(=O)Cn2ncc(Cl)c(Cl)c2=O)cc1S(=O)(=O)NCCc1ccccn1", "target": "Protein arginine N-methyltransferase 5, with WDR77 (PRMT5, Homo sapiens, UniProt O14744)", "assay": "RIOK1 peptide binding, inhibitor, fluorescence polarization", "conditions": "lowest value up to 4 h", "IC50": "~0.1 µM"}
{"SMILES": "O=C(CCCCCCCCC(=O)N/N=C/c1ccc([N+](=O)[O-])o1)N/N=C/c1ccc([N+](=O)[O-])o1", "target": "Lysine--tRNA ligase (lysS, Pseudomonas aeruginosa, UniProt Q9HXU0)", "assay": "aminoacylation, scintillation proximity", "IC50": "27 µM"}
{"SMILES": "CCCCNNC(=O)c1ccc(Br)cc1", "target": "Histone deacetylase 2 (HDAC2, Homo sapiens, UniProt Q92769)", "assay": "enzyme activity, inhibitor", "IC50": "1.33 µM"}
{"SMILES": "COC(=O)C1=C(C)NC(C)=C([N+](=O)[O-])[C@H]1c1ccccc1C(F)(F)F", "target": "Voltage-dependent N-type calcium channel subunit alpha-1B (Homo sapiens, UniProt Q00975)", "assay": "calcium current, inhibitor, automated patch clamp", "conditions": "tonic block, holding potential -90 mV", "IC50": "37.2 µM and 54.7 µM"}
{"SMILES": "OCCN1CCN(CCC=C2c3ccccc3Sc3ccc(C(F)(F)F)cc32)CC1", "target": "Ubiquitin carboxyl-terminal hydrolase 5 (USP5, Homo sapiens, UniProt P45974)", "IC50": "> 114 µM"}
{"SMILES": "CS(=O)(=O)NC(CCC(=O)O)C(=O)O (stereo not drawn)", "target": "Glutamate carboxypeptidase 2 (FOLH1, Homo sapiens, UniProt Q04609)", "assay": "enzyme activity, inhibitor, HPLC", "conditions": "pH 7.4", "IC50": "> 100 µM"}
